Experimental data collected from several papers.
Lines come from different studies, so protocols differ. “And” joins repeats or separate records; there may be more than shown. ± gives the spread as reported.
rep main protease: Replicase polyprotein 1ab, main protease (rep, Severe acute respiratory syndrome coronavirus 2, UniProt P0DTD1)
rep papain-like protease: Replicase polyprotein 1ab, papain-like protease (rep, Severe acute respiratory syndrome coronavirus 2, UniProt P0DTD1)

SMILES | target | test | test system | setting | inhibition
C[C@](C(=O)NC1CCC(F)(F)CC1)(c1cncnc1)N(C(=O)[C@H](F)Cl)c1ccc(OC(F)(F)F)cc1 | rep main protease | enzyme activity |  | 0.309 µM | 96.7% and 106%
O=C(Oc1cncc(Cl)c1)c1ccc2[nH]ccc2c1 | rep main protease | enzyme activity, inhibitor, fluorescence |  | 10 µM, pH 7.2 | 99%
CC1(C)C2CCC(CNC(=O)c3ccccc3[Se][Se]c3ccccc3C(=O)NCC3CCC4CC3C4(C)C)C1C2 (centres unmarked) | rep main protease | enzyme activity, inhibitor |  | 40 µM, mean of repeats | 69%
Nc1cccc(-n2[se]c3ccccc3c2=O)n1 | rep main protease | enzyme activity, inhibitor |  | 0.3 µM | 46.9%
CC1(C)C=Cc2c(ccc(C3COc4cc(O)cc(O)c4C3=O)c2O)O1 (centres unmarked) | rep main protease | enzyme activity, inhibitor |  | 8 µM | 66.9%
CNc1nc(NC(C)c2ccccc2Cl)nc(N2CCN(C(=O)CCl)CC2)n1 (centres unmarked) | rep main protease | inhibitor |  | 1 µM | inhibited
N[C@H](C[Se][Se]C[C@@H](N)C(=O)O)C(=O)O | rep main protease | enzyme activity, inhibitor |  | 40 µM, mean of repeats | 54.5%
O=C(/C=C/c1ccc(O)c(O)c1)O[C@@H]1Cc2c(O)cc(O)cc2O[C@@H]1c1ccc(O)c(O)c1 | rep main protease | intracellular protease activity | HEK293T | 100 µM | 93.55 ± 0.06%
O=C(Oc1cncc(Cl)c1)c1ccco1 | rep main protease | enzyme activity, inhibitor |  | 50 µM | 97%
C[C@H]1CC[C@@H]2[C@H]([C@@H]1n1[se]c3ccccc3c1=O)C2(C)C | rep main protease | enzyme activity, inhibitor |  | 40 µM, mean of repeats | 102%
C=C1CC[C@@H]2[C@](C)(COC(C)=O)[C@H](OC(C)=O)CC[C@@]2(C)[C@@H]1C[C@H](SC(=S)N1CCc2ccccc2C1c1ccccc1)C1=CCOC1=O (some centres unmarked) | rep main protease | enzyme activity, inhibitor, fluorescence |  | 10 µM | > 50%
O=C(NC1CCC(F)(F)CC1)C(c1cncnc1)N(C(=O)C(F)Cl)c1ccc(OC(F)(F)F)cc1 (centres unmarked) | rep main protease | enzyme activity, inhibitor |  | 25 µM | 101%
O=c1c2ccccc2sn1-c1ccccc1 | rep main protease | enzyme activity, inhibitor |  | 1 µM | 96.6%
COc1cccc(NC(=O)CSc2ccccc2C(=O)Nc2ccc3c(c2)NC(=O)C(C)O3)c1 (centres unmarked) | rep main protease | enzyme activity, inhibitor |  | 100 µg/mL | 0%
C[C@](C(=O)NC1CCOCC1)(c1cncnc1)N(C(=O)[C@H](F)Cl)c1ccc(OC(F)(F)Cl)cc1 | rep main protease | enzyme activity, inhibitor |  | 10 µM | 100%
O=c1c2ccccc2[se]n1-c1ccc(Oc2ccccc2)cc1 | rep main protease | enzyme activity, inhibitor |  | 0.3 µM | 50.1%
O=C(Oc1cncc(Cl)c1)c1cccc2[nH]ccc12 | rep main protease | enzyme activity, inhibitor, fluorescence |  | 10 µM, pH 7.2 | 100%
O=c1c2ccccc2[se]n1-c1cccnc1 | rep main protease | enzyme activity, inhibitor |  | 0.3 µM | 49.9%
O=C(NC1CCN(c2ncnc3[nH]cnc23)CC1)c1cccc(NS(=O)(=O)c2ccc(C(F)(F)F)cc2)c1 | Replicase polyprotein 1ab, nsp14 with nsp10 (rep, Severe acute respiratory syndrome coronavirus 2, UniProt P0DTD1) | exonuclease activity | SARS-CoV-2 | 50 µM | 11.6%
COc1cc(C(=O)N(CCC(=O)N2CCNCC2)Cc2cccc(Cl)c2)cc(OC)c1OC | Replicase polyprotein 1ab, nsp3 macrodomain (rep, Severe acute respiratory syndrome coronavirus 2, UniProt P0DTD1) | ADP-ribosylhydrolase activity, inhibitor, gel-based de-MARylation |  | 25 µM, SARS-CoV-2 Mac1 | 9%
O=C(NC1CCC(F)(F)CC1)C(c1cncnc1)N(C(=O)C(F)Cl)c1ccc(-c2cncs2)cc1 (centres unmarked) | rep main protease | enzyme activity, inhibitor |  | 8.333 µM | 102%
COc1cc(Oc2c(O)c(Br)c(C)c(Br)c2OC)c(C(=O)O)c(C)c1O | rep main protease | enzyme activity, inhibitor, FRET |  | 10 µM | 32.5%
CC(=O)Nc1ccc(-c2cnc(N3C(=O)CSC3c3cc4ccccc4nc3Cl)s2)cc1 (centres unmarked) | rep papain-like protease | enzyme activity, inhibitor |  | 100 µM | 97.5%
CCOC(=O)CC[C@@H](C(=O)OCC)n1[se]c2ccccc2c1=O | rep main protease | enzyme activity, inhibitor |  | 40 µM | 101%
COC(=O)c1cc2c(=O)n3ccccc3nc2n1Cc1ccccc1 | rep main protease | enzyme activity, inhibitor |  | 100 µM | 33%
CCOC(=O)CC[C@H](NC(=O)c1ccccc1[Se][Se]c1ccccc1C(=O)N[C@@H](CCC(=O)OCC)C(=O)OCC)C(=O)OCC | rep main protease | enzyme activity, inhibitor |  | 40 µM | 64.6% and 69.2%
COc1ccc(-c2cc(=O)c3c(O)cc(O)cc3o2)cc1Oc1ccc(-c2cc(=O)c3c(O)cc(O)cc3o2)cc1 | rep papain-like protease | enzyme activity, inhibitor |  | 5 µM | ≥ 50%
CC(C)[C@@H]1CC[C@@H](C)C[C@H]1NC(=O)c1ccccc1[Se][Se]c1ccccc1C(=O)N[C@@H]1C[C@H](C)CC[C@H]1C(C)C | rep main protease | enzyme activity, inhibitor |  | 40 µM | 96.6% and 95.6%
CCOc1cc(/C=N/NC(=O)COCC(=O)N/N=C/c2ccc(O)c(OCC)c2)ccc1O | rep papain-like protease | enzyme activity, inhibitor |  | 100 µg/mL | 0%

Repeated from above:
SMILES | target | test | test system | setting | inhibition
CCOC(=O)CC[C@@H](C(=O)OCC)n1[se]c2ccccc2c1=O | rep main protease | enzyme activity, inhibitor |  | 40 µM | 101%
COC(=O)c1cc2c(=O)n3ccccc3nc2n1Cc1ccccc1 | rep main protease | enzyme activity, inhibitor |  | 100 µM | 33%
CCOC(=O)CC[C@H](NC(=O)c1ccccc1[Se][Se]c1ccccc1C(=O)N[C@@H](CCC(=O)OCC)C(=O)OCC)C(=O)OCC | rep main protease | enzyme activity, inhibitor |  | 40 µM | 64.6% and 69.2%
